Results pooled from the literature.
Each line is one published result; not all experiments were run side by side. Numbers after ± are the reported error.
Tumor necrosis factor receptor superfamily member 9/Nectin-4: Tumor necrosis factor receptor superfamily member 9/Nectin-4 (Homo sapiens, UniProt Q07011+Q96NY8)
Toll-like receptor 1/2: Toll-like receptor 1/2 (Homo sapiens, UniProt O60603+Q15399)

`CCCC[C@@H]1NC(=O)[C@H](Cc2ccc(O)cc2)NC(=O)[C@@H]2CCCN2C(=O)[C@H](CC(=O)O)NC(=O)[C@H](C)NC(=O)[C@H](Cc2ccccc2)NC(=O)[C@@H]2CSCCC(=O)N3CN(CN(C3)C(=O)CCSC[C@@H](C(=O)N[C@@H](CNC(=O)CCOCCOCCOCCOCCOCCOCCOCCOCCOCCOCCOCCOCCn3cc(CCC(=O)NCCC(=O)N(C)CC(=O)N(C)CC(=O)N(C)CC(=O)N(C)CC(=O)N(C)CC(=O)N(C)CC(=O)N(C)CC(=O)N(C)CC(=O)N(C)CC(=O)N(C)CC(=O)N[C@H]4CSCCC(=O)N5CN6CN(C5)C(=O)CCSC[C@H](NC(=O)[C@@H](CC(=O)O)NC(=O)[C@H](Cc5cccc7ccccc57)NC(=O)[C@@H]5CCCN5C4=O)C(=O)N[C@@H](CCSC)C(=O)N[C@@H](CCCCNC(=N)N)C(=O)N[C@@H](CC(=O)O)C(=O)N[C@@H](Cc4c[nH]c5ccccc45)C(=O)N[C@@H](CO)C(=O)N[C@@H]([C@@H](C)O)C(=O)N4CCC[C@H]4C(=O)N4C[C@H](O)C[C@H]4C(=O)N[C@@H](Cc4c[nH]c5ccccc45)C(=O)N[C@H](C(N)=O)CSCCC6=O)nn3)C(N)=O)NC1=O)C(=O)CCSC[C@H](NC(=O)[C@H](C)NC(C)=O)C(=O)N[C@@H]([C@@H](C)CC)C(=O)N[C@@H](CCC(=O)O)C(=O)N[C@@H](CCC(=O)O)C(=O)NCC(=O)N[C@@H](CCC(N)=O)C(=O)N[C@@H](Cc1ccc(O)cc1)C(=O)N2` has an EC50 of 0.00398 µM (Tumor necrosis factor receptor superfamily member 9/Nectin-4; reporter gene, agonist; HT-1376 coculture with reporter cells).
The EC50 of `CCCCC[C@H](O)/C=C/[C@H]1[C@H](O)CC(=O)[C@@H]1C/C=C\CCCC(=O)O` is reported as 0.00146 µM (PTGER1 (Homo sapiens, UniProt P34995, S341A); IP1 accumulation, agonist; AD293; EP1 S341A mutant).
The EC50 of `Nc1ccc(CNc2ccncc2)c(F)c1` is reported as over 10 µM (ADRA1A (Homo sapiens, UniProt P35348); agonist, FLIPR reporter; reporter cell line).
`Cc1cnc(C)c(C)n1` gave an EC50 of 157 ± 30.8 µM (uncharacterized protein (Vulpes vulpes, UniProt A0A3Q7SVK8); cAMP, agonist; HEK293 transfected with uncharacterized protein).
`CCCC[C@@H]1NC(=O)[C@H](Cc2ccc(O)cc2)NC(=O)[C@@H]2CCCN2C(=O)[C@H](CC(=O)O)NC(=O)[C@H](C)NC(=O)[C@H](Cc2ccccc2)NC(=O)[C@@H]2CSCCC(=O)N3CN(CN(C3)C(=O)CCSC[C@@H](C(=O)N[C@@H](CNC(=O)Cn3cc(CCC(=O)NCCC(=O)N(C)CC(=O)N(C)CC(=O)N(C)CC(=O)N(C)CC(=O)N(C)CC(=O)N(C)CC(=O)N(C)CC(=O)N(C)CC(=O)N(C)CC(=O)N(C)CC(=O)N[C@H]4CSCCC(=O)N5CN6CN(C5)C(=O)CCSC[C@H](NC(=O)[C@@H](CC(=O)O)NC(=O)[C@H](Cc5cccc7ccccc57)NC(=O)[C@@H]5CCCN5C4=O)C(=O)N[C@@H](CCSC)C(=O)N[C@@H](CCCCNC(=N)N)C(=O)N[C@@H](CC(=O)O)C(=O)N[C@@H](Cc4c[nH]c5ccccc45)C(=O)N[C@@H](CO)C(=O)N[C@@H]([C@@H](C)O)C(=O)N4CCC[C@H]4C(=O)N4C[C@H](O)C[C@H]4C(=O)N[C@@H](Cc4c[nH]c5ccccc45)C(=O)N[C@H](C(N)=O)CSCCC6=O)nn3)C(N)=O)NC1=O)C(=O)CCSC[C@H](NC(C)=O)C(=O)N[C@@H](CC(C)(C)C)C(=O)N1CCC[C@H]1C(=O)N[C@@H](CCC(=O)O)C(=O)N[C@H](C)C(=O)N1CCC[C@H]1C(=O)N[C@@H](Cc1ccc(O)cc1)C(=O)N2` has an EC50 of 0.00198 µM (Tumor necrosis factor receptor superfamily member 9/Nectin-4; reporter gene, agonist; HT-1376 coculture with reporter cells).
With `CNc1ccc([N+](=O)[O-])cc1-n1cnc(-c2ccc(OC)cc2)c1` the EC50 was over 100 µM (Toll-like receptor 1/2; reporter gene, agonist; HEK-Blue hTLR2; 24 h).
`COc1cnccn1` gave an EC50 of at least 1500 µM (OR5K1 (Homo sapiens, UniProt Q8NHB7); cAMP luminescence, agonist; HEK293).
With `CNc1ccc([N+](=O)[O-])cc1-n1cnc(-c2ccc(C(=O)O)cc2)c1` the EC50 was over 100 µM (Toll-like receptor 1/2; reporter gene, agonist; HEK-Blue hTLR2; 24 h).
`Cn1cc(-c2ccc(-c3cncc(Cl)c3N3CCC4(CCNC4=O)CC3)cc2)cn1` — result for “log2 fold change”: -2.38 (COLO 205; gene expression, microarray, item: CDC45 mRNA; concentration not given, 6 h; reference: untreated cells).
`CCCC[C@@H]1NC(=O)[C@H](Cc2ccc(O)cc2)NC(=O)[C@@H]2CCCN2C(=O)[C@H](CCC(=O)O)NC(=O)[C@H](C)NC(=O)[C@H](Cc2ccccc2)NC(=O)[C@@H]2CSCCC(=O)N3CN(CN(C3)C(=O)CCSC[C@H](NC(C)=O)C(=O)N[C@@H](CC(C)(C)C)C(=O)N3CCC[C@H]3C(=O)N[C@@H](CCC(=O)O)C(=O)N[C@H](CCCCNC(=O)CCc3cn(CCOCCOCCOCCN(CCOCCOCCOCCC(=O)N[C@H]4CSCCC(=O)N5CN6CN(C5)C(=O)CCSC[C@H](NC(=O)[C@@H](CC(=O)O)NC(=O)[C@H](Cc5cccc7ccccc57)NC(=O)[C@@H]5CCCN5C4=O)C(=O)N[C@@H](CCSC)C(=O)N[C@@H](CCCCNC(=N)N)C(=O)N[C@@H](CC(=O)O)C(=O)N[C@@H](Cc4c[nH]c5ccccc45)C(=O)N[C@@H](CO)C(=O)N[C@@H]([C@@H](C)O)C(=O)N4CCC[C@H]4C(=O)N4C[C@H](O)C[C@H]4C(=O)N[C@@H](Cc4c[nH]c5ccccc45)C(=O)N[C@H](C(N)=O)CSCCC6=O)CCOCCOCCOCCn4cc(CCC(=O)NCCCC[C@H]5NC(=O)[C@H](CCC(=O)O)NC(=O)[C@@H]6CCCN6C(=O)[C@H](CC(C)(C)C)NC(=O)[C@@H](NC(C)=O)CSCCC(=O)N6CN7CN(C6)C(=O)CCSC[C@H](NC(=O)[C@H](Cc6ccc(O)cc6)NC(=O)[C@@H]6CCCN6C5=O)C(=O)N[C@@H](Cc5ccccc5)C(=O)N[C@@H](C)C(=O)N[C@@H](CCC(=O)O)C(=O)N5CCC[C@H]5C(=O)N[C@@H](Cc5ccc(O)cc5)C(=O)N[C@@H](CCCC)C(=O)N[C@H](C(N)=O)CSCCC7=O)nn4)nn3)C(=O)N3CCC[C@H]3C(=O)N[C@@H](Cc3ccc(O)cc3)C(=O)N2)C(=O)CCSC[C@@H](C(N)=O)NC1=O` has an EC50 of 0.0119 µM (Tumor necrosis factor receptor superfamily member 9/Nectin-4; reporter gene, agonist; HT-1376 coculture with reporter cells).
`O=c1ccn([C@@H]2O[C@H](COP(=O)(O)OP(=O)(O)OP(=O)(O)O)[C@@H](O)[C@H]2O)c(=O)[nH]1` gave an EC50 of 0.592 µM (P2Y purinoceptor 2 (P2RY2, Homo sapiens, UniProt P41231); agonist, cell-based).
With `Cn1cc2c(C(=O)O)ccc(NS(=O)(=O)c3ccc(OCC4CCC4)c(Cl)c3)c2n1` the EC50 was over 10 µM (HTR2B (Homo sapiens, UniProt P41595); agonist).
With `Nc1nc2c(ncn2[C@@H]2O[C@@H]3COP(=O)(O)O[C@H]3[C@H]2O)c(=O)[nH]1` the EC50 was 265 ± 21.8 µM (Cone cGMP-gated channel (Morone saxatilis, UniProt Q3I0N1+Q3I0N2); channel current, agonist, suction electrode; Morone saxatilis, cone outer segments; with: 2 µM Ca2+).
`COc1nccnc1C(C)C` gave an EC50 of 498 ± 110 µM (OR5K1 (Homo sapiens, UniProt Q8NHB7, A2T/I280V/T15M/V39I/Y193C); cAMP, agonist; HEK293 transfected with OR5K1).
`CCCC[C@@H]1NC(=O)[C@H](Cc2ccc(O)cc2)NC(=O)[C@@H](C)N(C)C(=O)[C@H](CC(=O)O)NC(=O)[C@H](C)NC(=O)[C@H](Cc2ccccc2)NC(=O)[C@@H]2CSCCC(=O)N3CN(CN(C3)C(=O)CCSC[C@H](NC(C)=O)C(=O)N[C@@H](CC(C)(C)C)C(=O)N3CCC[C@H]3C(=O)N[C@@H](CCC(=O)O)C(=O)N[C@H](CCCCNC(=O)CCc3cn(CCOCCOCCOCCN(CCOCCOCCOCCC(=O)N[C@H]4CSCCC(=O)N5CN6CN(C5)C(=O)CCSC[C@H](NC(=O)[C@@H](CC(=O)O)NC(=O)[C@H](Cc5cccc7ccccc57)NC(=O)[C@@H]5CCCN5C4=O)C(=O)N[C@@H](CCSC)C(=O)N[C@@H](CCCCNC(=N)N)C(=O)N[C@@H](CC(=O)O)C(=O)N[C@@H](Cc4c[nH]c5ccccc45)C(=O)N[C@@H](CO)C(=O)N[C@@H]([C@@H](C)O)C(=O)N4CCC[C@H]4C(=O)N4C[C@H](O)C[C@H]4C(=O)N[C@@H](Cc4c[nH]c5ccccc45)C(=O)N[C@H](C(N)=O)CSCCC6=O)CCOCCOCCOCCn4cc(CCC(=O)NCCCC[C@H]5NC(=O)[C@H](CCC(=O)O)NC(=O)[C@@H]6CCCN6C(=O)[C@H](CC(C)(C)C)NC(=O)[C@@H](NC(C)=O)CSCCC(=O)N6CN7CN(C6)C(=O)CCSC[C@H](NC(=O)[C@H](Cc6ccc(O)cc6)NC(=O)[C@@H]6CCCN6C5=O)C(=O)N[C@@H](Cc5ccccc5)C(=O)N[C@@H](C)C(=O)N[C@@H](CC(=O)O)C(=O)N(C)[C@H](C)C(=O)N[C@@H](Cc5ccc(O)cc5)C(=O)N[C@@H](CCCC)C(=O)N[C@H](C(N)=O)CSCCC7=O)nn4)nn3)C(=O)N3CCC[C@H]3C(=O)N[C@@H](Cc3ccc(O)cc3)C(=O)N2)C(=O)CCSC[C@@H](C(N)=O)NC1=O` has an EC50 of 0.00035 µM (Tumor necrosis factor receptor superfamily member 9/Nectin-4; reporter gene, agonist; HT-1376 reporter coculture).
The EC50 of `O=C(O)CCCc1cc2cc(Cl)ccc2n1S(=O)(=O)c1ccc2ncsc2c1` is reported as 1 µM (PPARD (Homo sapiens, UniProt Q03181); reporter gene, agonist, luciferase reporter; serum-free).
The EC50 of `O=C(Nc1ccn(Cc2ccc(O)cc2C(F)(F)F)n1)c1c(F)cccc1F` is reported as over 10 µM (KCNQ2 (Homo sapiens, UniProt O43526); channel activity, agonist; cells overexpressing channel).

A few entries again:
`O=c1ccn([C@@H]2O[C@H](COP(=O)(O)OP(=O)(O)OP(=O)(O)O)[C@@H](O)[C@H]2O)c(=O)[nH]1` gave an EC50 of 0.592 µM (P2Y purinoceptor 2 (P2RY2, Homo sapiens, UniProt P41231); agonist, cell-based).
`CCCC[C@@H]1NC(=O)[C@H](Cc2ccc(O)cc2)NC(=O)[C@@H](C)N(C)C(=O)[C@H](CC(=O)O)NC(=O)[C@H](C)NC(=O)[C@H](Cc2ccccc2)NC(=O)[C@@H]2CSCCC(=O)N3CN(CN(C3)C(=O)CCSC[C@H](NC(C)=O)C(=O)N[C@@H](CC(C)(C)C)C(=O)N3CCC[C@H]3C(=O)N[C@@H](CCC(=O)O)C(=O)N[C@H](CCCCNC(=O)CCc3cn(CCOCCOCCOCCN(CCOCCOCCOCCC(=O)N[C@H]4CSCCC(=O)N5CN6CN(C5)C(=O)CCSC[C@H](NC(=O)[C@@H](CC(=O)O)NC(=O)[C@H](Cc5cccc7ccccc57)NC(=O)[C@@H]5CCCN5C4=O)C(=O)N[C@@H](CCSC)C(=O)N[C@@H](CCCCNC(=N)N)C(=O)N[C@@H](CC(=O)O)C(=O)N[C@@H](Cc4c[nH]c5ccccc45)C(=O)N[C@@H](CO)C(=O)N[C@@H]([C@@H](C)O)C(=O)N4CCC[C@H]4C(=O)N4C[C@H](O)C[C@H]4C(=O)N[C@@H](Cc4c[nH]c5ccccc45)C(=O)N[C@H](C(N)=O)CSCCC6=O)CCOCCOCCOCCn4cc(CCC(=O)NCCCC[C@H]5NC(=O)[C@H](CCC(=O)O)NC(=O)[C@@H]6CCCN6C(=O)[C@H](CC(C)(C)C)NC(=O)[C@@H](NC(C)=O)CSCCC(=O)N6CN7CN(C6)C(=O)CCSC[C@H](NC(=O)[C@H](Cc6ccc(O)cc6)NC(=O)[C@@H]6CCCN6C5=O)C(=O)N[C@@H](Cc5ccccc5)C(=O)N[C@@H](C)C(=O)N[C@@H](CC(=O)O)C(=O)N(C)[C@H](C)C(=O)N[C@@H](Cc5ccc(O)cc5)C(=O)N[C@@H](CCCC)C(=O)N[C@H](C(N)=O)CSCCC7=O)nn4)nn3)C(=O)N3CCC[C@H]3C(=O)N[C@@H](Cc3ccc(O)cc3)C(=O)N2)C(=O)CCSC[C@@H](C(N)=O)NC1=O` has an EC50 of 0.00035 µM (Tumor necrosis factor receptor superfamily member 9/Nectin-4; reporter gene, agonist; HT-1376 reporter coculture).
